Measured values collected from several papers.
Each numbered part is a random draw from the data of one study; scales do not carry over between parts. Substitutions count along the parent as printed.

Study 1
Target: inorganic phosphate, free oxyanion
Technique: microfluidic competitive inhibition
Sample: in vitro, cell-free expressed
Concentration: not given
Setting: derived from inhibition constants, unchanged parent 615000 nM
Reading: lower = stronger binding
Quantity: phosphate dissociation constant
Parent: PafA, mature enzyme, eGFP fusion (Elizabethkingia meningoseptica, UniProt Q9KJX5); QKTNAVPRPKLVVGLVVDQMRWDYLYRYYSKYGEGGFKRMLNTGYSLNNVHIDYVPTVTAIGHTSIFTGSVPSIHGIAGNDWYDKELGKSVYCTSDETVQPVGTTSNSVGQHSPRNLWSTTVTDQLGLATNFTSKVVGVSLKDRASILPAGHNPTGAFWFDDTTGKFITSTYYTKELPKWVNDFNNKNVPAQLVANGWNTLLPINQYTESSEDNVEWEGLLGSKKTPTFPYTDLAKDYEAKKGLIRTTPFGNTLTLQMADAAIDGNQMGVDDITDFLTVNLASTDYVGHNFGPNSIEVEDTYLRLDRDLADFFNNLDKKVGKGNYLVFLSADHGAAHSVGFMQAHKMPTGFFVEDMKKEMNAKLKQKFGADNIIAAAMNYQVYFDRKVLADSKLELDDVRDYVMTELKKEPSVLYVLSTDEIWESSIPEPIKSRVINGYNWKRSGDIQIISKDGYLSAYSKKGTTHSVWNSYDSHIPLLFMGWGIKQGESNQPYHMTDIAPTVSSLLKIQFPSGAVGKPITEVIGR
K187G: 590 µM
P293G: 540 µM
S140G: 381 µM
K224G: 544 µM
T247G: 449 µM
R27V: 588 µM
D371G: 495 µM
T68G: 173 µM
I66G: 373 µM
V382A: 632 µM
H289V: 960 µM
G110A: 632 µM
A259G: 472 µM
D355V: 613 µM
E424G: 739 µM
V403A: 634 µM
L364G: 494 µM
E421G: 526 µM
E86V: 537 µM
T3G: 633 µM
T465G: 397 µM
K318G: 566 µM
G79V: 100 µM
Q448G: 661 µM
Y45V: 658 µM

Study 2
Target: Phosphate system positive regulatory protein PHO4, full length, GST-tagged (PHO4, Saccharomyces cerevisiae, UniProt P07270, residues 1-312)
Technique: competition protein-binding microarray
Molecule type: double-stranded DNA, one strand shown
Sample: in vitro
Concentration: 2 µM
Setting: whole 60-bp probe, lowest competitor level
Added: Cbf1 competitor, 0.05 µM
Reading: higher = stronger binding
Quantity: fluorescence intensity
All sequences stand within: … GTCTTGATTCGCTTGACGCTGCTG
Construct (chain): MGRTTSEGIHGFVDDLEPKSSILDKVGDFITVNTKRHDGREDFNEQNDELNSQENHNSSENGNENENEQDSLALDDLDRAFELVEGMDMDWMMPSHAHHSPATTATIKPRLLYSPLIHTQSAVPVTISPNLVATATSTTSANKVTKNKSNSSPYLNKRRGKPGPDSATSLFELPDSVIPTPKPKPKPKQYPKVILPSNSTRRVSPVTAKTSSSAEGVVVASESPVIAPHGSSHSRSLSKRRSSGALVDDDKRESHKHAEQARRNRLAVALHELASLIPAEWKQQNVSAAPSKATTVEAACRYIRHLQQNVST
GAAGGTGGTCCAACACACGTGATGGACCTAAACTCG: 13900 a.u.
TTGCTCAACGTTAAAGACGTGCTTTTTTGACTGACT: 6720 a.u.
AAAGCGGTAATTTATCACGTGTTTTCACATATCTAT: 16000 a.u.
CGGGGTTAAGTTTGATATGTGGGTGGCTTGCAGCAG: 4740 a.u.
GTCTTGTCTCATTGCATTGTGGGTGTCCCCACTTCA: 5120 a.u.
AAATTACTAAGTTGCGTCGTGGGTGACGCCGTATGA: 8220 a.u.
CATCAGCATGGTACCCTCGTGTTTTCTGCAGCGAGA: 11700 a.u.
AGGACAAGTTGTAGTCACCTGGCAAACCGAAAACGG: 4290 a.u.

Study 3
Target: Muscarinic acetylcholine receptor M3 (CHRM3, Homo sapiens, UniProt P20309)
Chain of UniProt P20309 (whole entry, looked up): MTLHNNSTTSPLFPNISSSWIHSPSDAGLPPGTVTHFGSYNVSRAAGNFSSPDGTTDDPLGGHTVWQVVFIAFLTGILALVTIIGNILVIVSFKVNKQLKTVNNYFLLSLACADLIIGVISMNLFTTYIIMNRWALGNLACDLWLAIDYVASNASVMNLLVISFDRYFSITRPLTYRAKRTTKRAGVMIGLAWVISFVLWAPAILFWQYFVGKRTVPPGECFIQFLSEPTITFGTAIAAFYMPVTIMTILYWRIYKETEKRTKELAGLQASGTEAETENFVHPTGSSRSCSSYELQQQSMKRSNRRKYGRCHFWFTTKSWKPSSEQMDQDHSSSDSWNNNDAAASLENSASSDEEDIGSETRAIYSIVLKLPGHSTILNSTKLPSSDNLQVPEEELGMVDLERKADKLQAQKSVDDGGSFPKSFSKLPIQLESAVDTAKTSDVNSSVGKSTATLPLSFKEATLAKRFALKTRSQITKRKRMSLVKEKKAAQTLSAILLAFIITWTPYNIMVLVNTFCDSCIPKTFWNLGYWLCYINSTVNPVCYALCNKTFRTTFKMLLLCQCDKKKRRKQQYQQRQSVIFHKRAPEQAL
Effect on: ligand displacement
Concentration: 10 µM
Quantity: inhibition
C[C@H](c1ccc(F)cc1)N(Cc1cccc(C(=O)O)c1)C(=O)c1cnc2ccccc2c1: -7.68%
CC1CCN(c2ccnc(NCc3cn(C)cn3)n2)CC1: 7.48%
CCc1ccccc1C(=O)Nc1n[nH]c2c(C)c(F)c(C3C(C#N)=C(C)N(C)C(C)=C3C#N)cc12: 22.5%
C[C@@H]1CN(c2cc(-c3n[nH]c4ccc(OC5(C)CC5)cc34)ncn2)C[C@H](C)O1: 7.93%
CCOc1ccc(S(=O)(=O)Nc2ccc(Cl)cc2C#Cc2cnc(C(=O)O)cc2OC)c2ncccc12: 9.34%

Study 4
Target: FOSL1, bZIP domain (human)
Technique: DHFR protein complementation
Sample: yeast
Setting: single substitutions, most at no-binding floor
Baseline: wild-type JUN-FOS pair
Reading: higher = stronger binding
Quantity: binding fitness
Parent: JUN, bZIP domain (human); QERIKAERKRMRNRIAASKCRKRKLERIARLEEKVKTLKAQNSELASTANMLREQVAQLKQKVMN; partner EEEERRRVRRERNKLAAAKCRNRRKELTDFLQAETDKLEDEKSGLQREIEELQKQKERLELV
A46N: -0.496 natural log
Q41N: -0.799 natural log
T48K: -0.242 natural log
R30K: -0.487 natural log
L45P: -1.31 natural log
L45K: -1.33 natural log
R30P: -0.802 natural log
V35M: -0.382 natural log

Study 5
Target: CCND1, cyclin fold, Cln2 fusion (human)
Technique: yeast growth competition, sequencing
Sample: yeast
Setting: weak parent motif
Baseline: not given
Reading: higher = stronger binding
Quantity: normalised enrichment score
Parent: viral docking peptide; KKAKRRLFTISDS
R5K F8L: 0.153
R5A: 0.269
S11A: 0.789
F8A: -0.21

Repeated from above (study 1):
D355V: 613 µM
Q448G: 661 µM
V382A: 632 µM
T465G: 397 µM
K187G: 590 µM
D371G: 495 µM
